Measurements collected from several papers.
Each numbered part is a random draw from the data of one study; scales do not carry over between parts.
Chain of UniProt P28222 (whole entry, looked up): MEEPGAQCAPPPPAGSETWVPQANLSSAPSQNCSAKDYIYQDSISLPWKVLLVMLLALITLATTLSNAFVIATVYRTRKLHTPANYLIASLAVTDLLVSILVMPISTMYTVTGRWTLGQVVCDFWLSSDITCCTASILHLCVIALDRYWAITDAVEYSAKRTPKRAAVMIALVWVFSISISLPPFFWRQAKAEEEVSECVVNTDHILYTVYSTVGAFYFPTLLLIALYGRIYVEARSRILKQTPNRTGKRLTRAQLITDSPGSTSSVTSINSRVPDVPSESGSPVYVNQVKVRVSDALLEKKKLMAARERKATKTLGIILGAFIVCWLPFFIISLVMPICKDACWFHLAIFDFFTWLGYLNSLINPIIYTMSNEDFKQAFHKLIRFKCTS

Study 1 — method: RNA Bind-n-Seq; form: RNA; sample: in vitro; tested at: 365 nM; relative to: no-protein control; direction: higher = stronger binding
Target: RNA binding protein fox-1 homolog 2, RRM domain, GST-SBP tag (RBFOX2, Homo sapiens, UniProt O43251-10, residues 100-194)
Notes: natural RNA segment, single round, ends assumed
Shared flanks, not repeated: GGGAGUUCUACAGUCCGACGAUC … UGGAAUUCUCGGGUGCCAA
Target sequence (chain): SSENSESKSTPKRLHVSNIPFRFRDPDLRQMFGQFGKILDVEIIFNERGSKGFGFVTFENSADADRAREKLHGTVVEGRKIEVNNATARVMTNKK
| Sequence | RBNS enrichment (R) |
| --- | --- |
| AAACAUCACGCUCCCCUGUAUGGGGAGAAGAAGGGUCAAGAUGGAUUUCUGCAGUUCCUGCGUUGGGCAGUAGGGUGAAGAGUGGGGCCAUCAUCUCAUAAAAGGAAUUC | 0.492 |
| ACAGCUCCUGCUGUGACUGAGGGACGGGGUGUAUCUGGCCUACCCUAGUUGUUGCAGAAUCCUUCCCCAGGAGCCCCUUCACUCCUGCUGGGGUAGUCACCAGCUUACUG | 0.35 |
| AAGACCUUUAAUGAUACUUAUGAUGCACUCAGUGCCAUACAAUAGUGUUUUAAGAAGCACAUGGCCUCAUUUUCCUUAGAAACAAGACAAAGCCUUUUUAAAAUGUUUUU | 0.732 |
| AAUCUUCCAGGCUUCAUCAUCAAGAGGGGAAGGGACCUUAAUUCUAGGGUCUCCCCUUUACCCUCUCUCCUUAUUUAUUCUUGCCCCUCUGCUAUUAUUCCUUGCUGUUU | 0.587 |
| UCACUGACGACAACAAAAGCUUAGUUUCUAGCAUGAGAGGCUAAACAGCCCCACACAGCUCUGAUUCCAUAGCUGCAUUAAAGAUGAUUAUUUAUAUUACAGAGAAAAGA | 2.41 |
| UUACUGACUCCAUUGAGUCCCUGAGCAUCUGUACAUAGCCUUCACCACCCCCAGUCUCAAUCCUGUGCCGACAAAGGAAGUGGACGAAUUAGUGAUGAUGGUGGGCGUGA | 0.241 |
| UAGGGUUAUGUCACCAACUUGCAGCCUGAGACACUUGUUUUAAAAAGCUCAGUGUUUUAUUUCAGUAAAAAUUAUUUGGUCAUAAAUUUUGGGAAGAACUGAUUUCUUUU | 0.615 |
| ACAAUAGGCCUUUUCUUUAUCAUUCAUACGACAUUUCUGGUUUAGGUGUAUGUAGUUGGGCCAUGUUACUUGUCCAGAGGAAGAGACUAAAGAUAUAAGAAUAAUUUUUU | 0.586 |

Study 2 — method: universal PBM; form: double-stranded DNA, one strand shown; sample: in vitro; tested at: 600 nM; direction: higher = stronger binding
Target: Sal-like protein 4, full length isoform A (SALL4, Homo sapiens, UniProt Q9UJQ4, residues 1-1053)
Chain of UniProt Q9UJQ4 (whole entry, looked up): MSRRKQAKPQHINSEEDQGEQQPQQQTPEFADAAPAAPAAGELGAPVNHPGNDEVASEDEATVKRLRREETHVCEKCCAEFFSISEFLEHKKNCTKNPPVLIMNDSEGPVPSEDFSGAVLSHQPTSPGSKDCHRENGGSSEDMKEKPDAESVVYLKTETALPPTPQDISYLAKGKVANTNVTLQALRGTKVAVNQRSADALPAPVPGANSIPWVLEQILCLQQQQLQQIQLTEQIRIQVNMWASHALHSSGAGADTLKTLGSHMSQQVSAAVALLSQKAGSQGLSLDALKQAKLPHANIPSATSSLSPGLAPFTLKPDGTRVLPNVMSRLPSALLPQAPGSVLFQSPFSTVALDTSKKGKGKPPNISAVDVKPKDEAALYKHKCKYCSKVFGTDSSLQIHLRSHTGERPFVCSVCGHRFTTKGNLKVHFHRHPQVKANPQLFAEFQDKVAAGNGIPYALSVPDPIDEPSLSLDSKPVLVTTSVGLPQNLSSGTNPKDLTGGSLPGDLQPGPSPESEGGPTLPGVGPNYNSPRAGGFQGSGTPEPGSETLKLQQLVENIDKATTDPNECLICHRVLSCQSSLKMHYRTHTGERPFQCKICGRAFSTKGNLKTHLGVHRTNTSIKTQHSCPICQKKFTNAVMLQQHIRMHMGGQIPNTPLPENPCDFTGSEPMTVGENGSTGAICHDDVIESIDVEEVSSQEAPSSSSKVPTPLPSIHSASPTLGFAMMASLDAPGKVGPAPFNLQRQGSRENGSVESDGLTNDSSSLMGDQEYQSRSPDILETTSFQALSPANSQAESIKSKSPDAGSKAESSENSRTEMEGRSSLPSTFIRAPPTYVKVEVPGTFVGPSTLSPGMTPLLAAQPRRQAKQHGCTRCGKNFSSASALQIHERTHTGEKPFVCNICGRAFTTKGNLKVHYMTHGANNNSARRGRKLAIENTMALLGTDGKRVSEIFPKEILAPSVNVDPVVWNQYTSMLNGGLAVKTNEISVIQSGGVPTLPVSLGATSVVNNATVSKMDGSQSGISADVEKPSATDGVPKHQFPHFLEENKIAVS
Notes: 8-mer, flanks averaged, mean of replicates
| Sequence | E-score |
| --- | --- |
| CTCTGGAA | -0.0748 |
| GTTATGTA | 0.237 |
| GAGTACTA | 0.117 |
| CAATGTCC | -0.189 |
| ATCCAAAT | 0.276 |
| CATTGACG | 0.0915 |
| CAGTGAAA | 0.0281 |
| ATCAATTC | 0.204 |

Single results of other studies
| SMILES | tested on | test | test system | setting | quantity | result |
| --- | --- | --- | --- | --- | --- | --- |
| O=C1OC(CN2CCOCC2)CN1/N=C/c1ccc([N+](=O)[O-])o1 (centres unmarked) | A-375 |  |  | 100 µM, 36 h | viability | 36.2% |
| C[C@H](c1ccnc(Nc2nc3ccc(-c4cc(N(C)C)ncn4)cc3[nH]2)c1)N1CCN(C(=O)CC(F)(F)F)CC1 | 5-hydroxytryptamine receptor 1B (HTR1B, Homo sapiens, UniProt P28222) | ligand displacement |  | 10 µM | inhibition | 11.5% |
| Cc1ccc(C(=O)Nc2ccc(S(=O)(=O)O)c3cc(S(=O)(=O)O)cc(S(=O)(=O)O)c23)cc1NC(=O)c1cccc(NC(=O)Nc2cccc(C(=O)Nc3cc(C(=O)Nc4ccc(S(=O)(=O)O)c5cc(S(=O)(=O)O)cc(S(=O)(=O)O)c45)ccc3C)c2)c1 | A-375 |  |  | 100 µM, 36 h | viability | 93.4% |
| CCC[C@H]1NC(=O)CSC[C@@H](C(=O)OCC)N(C)C(=O)[C@H](CC(C)C)NC(=O)[C@@H](C)N(C)C(=O)[C@H](CC(C)C)NC(=O)[C@H](C)N(C)C(=O)[C@H]2CCCN2C(=O)[C@H](CC(C)C)NC(=O)CN(CCC)C1=O |  |  | hydrocarbon/water |  | logD | 1.45 |

Repeated from above (study 1):
| Sequence | RBNS enrichment (R) |
| --- | --- |
| AAGACCUUUAAUGAUACUUAUGAUGCACUCAGUGCCAUACAAUAGUGUUUUAAGAAGCACAUGGCCUCAUUUUCCUUAGAAACAAGACAAAGCCUUUUUAAAAUGUUUUU | 0.732 |
| AAUCUUCCAGGCUUCAUCAUCAAGAGGGGAAGGGACCUUAAUUCUAGGGUCUCCCCUUUACCCUCUCUCCUUAUUUAUUCUUGCCCCUCUGCUAUUAUUCCUUGCUGUUU | 0.587 |
| UCACUGACGACAACAAAAGCUUAGUUUCUAGCAUGAGAGGCUAAACAGCCCCACACAGCUCUGAUUCCAUAGCUGCAUUAAAGAUGAUUAUUUAUAUUACAGAGAAAAGA | 2.41 |
